Experimental data from different studies.
Every numbered part comes from another study and shows a few of its results, in no order.

Block 1 — method: RNA Bind-n-Seq; form: RNA; matrix: in vitro; tested at: 200 nM; notes: whole 134-nt RNA, ends assumed; with: 150 mM KCl; reference: input library; direction: higher = stronger binding
Target: Ras GTPase-activating protein-binding protein 1, full length (G3BP1, Homo sapiens, UniProt Q13283)
Chain of UniProt Q13283 (whole entry, looked up): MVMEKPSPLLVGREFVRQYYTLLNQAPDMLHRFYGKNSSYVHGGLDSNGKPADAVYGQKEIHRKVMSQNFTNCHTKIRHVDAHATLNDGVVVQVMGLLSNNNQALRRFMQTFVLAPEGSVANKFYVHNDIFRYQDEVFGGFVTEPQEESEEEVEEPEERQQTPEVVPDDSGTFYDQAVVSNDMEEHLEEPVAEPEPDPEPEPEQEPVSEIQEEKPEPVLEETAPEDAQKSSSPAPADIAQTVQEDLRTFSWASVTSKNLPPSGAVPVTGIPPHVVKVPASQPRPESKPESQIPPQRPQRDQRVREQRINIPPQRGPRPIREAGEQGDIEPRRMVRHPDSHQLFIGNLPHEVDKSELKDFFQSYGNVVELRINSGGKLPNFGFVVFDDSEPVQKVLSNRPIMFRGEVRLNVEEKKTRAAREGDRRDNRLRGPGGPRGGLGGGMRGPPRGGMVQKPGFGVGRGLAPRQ
All sequences stand within: GGGAGUUCUACAGUCCGACGAUC … UGGAAUUCUCGGGUGUCAAGG
Strand	log2 enrichment
UCAAGUCCUGUGCUACACAUCGUAUGUACCGAAUCGGAGGAAAAAGGUUUUUGGAAAGUAUUAUGUUACGCCGUUCGGAUCUGCACUUCC	-1.05
CACAGACAACACGCACCCACACAGACACAGAGGGAAGGGGUUGGUAUGGGGACAGGGUGCACAGCAGGGCGGGGUAGGACCCCAGCCCCU	1.87
UGGGUGAAGAGGGACAGUUACCUUCCUGUGGGCAGUCAUAAUCUCAAGGCGGCCGCCAAGGCCAAGCUAGGCUAUGAUCCCGUGGAGCUA	-1.27
CCUGUGCUACACAUCGUAUGUACCGAAUCGGUUUUUUUGGUUUUUUUGGGUUUUUUUGGGAAAGUAUUAUGUUACGCCGUUCGGAUCUGC	-1.05
CCUGUGCUACACAUCGUAUGUACCGAAUCGGGUUUUUGGGUUUUUUUGGGAAAAAAAGGGAAAGUAUUAUGUUACGCCGUUCGGAUCUGC	-0.975
UGGCCCUGGUGGCAUGCGGGGAGGAAGAGGUGGCCUCAUGGAUCGUGGUGGUCCCGGUGGAACGUUCAGAGGUGGCCGUGGUGGAGACAG	0.145
CCUCAAGUCCUGUGCUACACAUCGUAUGUACCGAAUCGGCCGGCCGGGGCCGGAAAGUAUUAUGUUACGCCGUUCGGAUCUGCACUUCCA	-0.0729
CACAGACAACACGCACCCACACAGACACAGAGGGAAGGGGUUGGGAUGGGGACAGGGUGCCCAGCAGGGCGGGGUAGGACCCCAGCCCCU	1.59
GCAGGAAGUAAAAACAAAUGGAAAUGCUUCGGAUAGUGGCAGGGGUGGGGGUUGCUAAGUAAAGGGUGGGAUGGGAGUGGGUAAAGAGUU	0.84
AGUCCUGUGCUACACAUCGUAUGUACCGAAUCGGGGAAAGGGGAAAGGGGAAAGGGGAAAGUAUUAUGUUACGCCGUUCGGAUCUGCACU	0.423
UACCCUCGUGCCCCUGUUUUUCCUGGCCGUGGUAGUUACUCAAACAGAGGGAACUACAACAGAGGUGGAAUGCCCAACAGAGGGAACUAC	-1.08
CACAGACAACACACACCCACACAGACACAGAGGGAAGGGGUUGGGAUGGGGACAGGGUGCACAGCAGGGCGGGGUAGGACCCCAGCCCCU	1.28
AAGUCCUGUGCUACACAUCGUAUGUACCGAAUCGGCCCCGGGGCCCCGGGCCCCGGGAAAGUAUUAUGUUACGCCGUUCGGAUCUGCACU	-1.35
GUCCUGUGCUACACAUCGUAUGUACCGAAUCGGGGUUUUUGGUUUUUGGGGUUUUUGGAAAGUAUUAUGUUACGCCGUUCGGAUCUGCAC	-0.585

Block 2 — method: protein-binding microarray; form: double-stranded DNA, one strand shown; matrix: in vitro; tested at: 940 nM top; notes: 60-bp whole probe; with: salmon DNA 0.4 mg/ml; reference: random background probes; direction: higher = stronger binding; all sequences stand within: GCCTAGCAC … GTCTTGATTCGCTTGACGCTGCTG
Target: Interferon regulatory factor 5, full length, phosphomimetic (IRF5, Homo sapiens, UniProt Q13568-2, residues 1-514, S451D/S453D/S456D/S462D)
Strand	fitted relative affinity
TGGGAGCTCAGGAATCCCACGTGCTAG	-0.575 z-score
CACGGTTTCGACTATCGGGACGTGCTA	7.44 z-score
TAAGATATCGGGTATCGATTAGTGCTA	3.24 z-score
TCCATTATTGCTTCCTCTTTGTGCTAG	1.17 z-score
GACGGTATCGACTATCGGGTCGTGCTA	5.93 z-score
GACGGTATCGGGTTTCGGGAGGTGCTA	5.45 z-score
TTAGGTATCGGTCTCGGTTTGTGCTAG	9.92 z-score
TCAGAATTGAAAATTAGTACTGTGCTA	-0.568 z-score
TTAGGTATCCTTATCCTATAGTGCTAG	0.627 z-score
GACGGTTTCGGTTTCGGGTCGTGCTAG	16.9 z-score
TCATTTTAGCTTCTCAAACTGTGCTAG	0.029 z-score
TCAGGTTCCCTTTTCCTTTAGTGCTAG	0.863 z-score
CACGGTTCCCTTTTCCTGACGTGCTAG	0.706 z-score
GACGATATCCTTCTCCTGACGTGCTAG	0.451 z-score
GACGGACTGGACACTAGGGACGTGCTA	-0.384 z-score
GAAGGTTTCCTTATCCTGACGTGCTAG	1.16 z-score
TTAGGTATCGGGTTTCGGTCAGTGCTA	7.53 z-score
TTAGGACTTGGGACTGGGTTAGTGCTA	-0.532 z-score
TACTTTCTGAATGCTCCCCCTGTGCTA	2.31 z-score
TTAGGGTCCCTTTTCCTTTAGTGCTAG	0.435 z-score
GACGGTTTCCATCTCCTGACGTGCTAG	1.77 z-score
TTAGGTATCCTTATCCATTAGTGCTAG	0.444 z-score
GACAGTTCCGGTTTCGGGACGTGCTAG	6.21 z-score
TCACCCCTCAGATCTGCCACTGTGCTA	0.0508 z-score
GACGATTTCAGTTTCAAGACGTGCTAG	1.66 z-score

Block 3 — method: RNAcompete; form: RNA; matrix: in vitro; tested at: 20 nM; notes: 7-mer, probes averaged, single round; reference: mean of 7-mers; direction: higher = stronger binding
Target: PABPC1L2, full length, GST fusion (mouse, UniProt A0ABA7IW68)
Target sequence (chain): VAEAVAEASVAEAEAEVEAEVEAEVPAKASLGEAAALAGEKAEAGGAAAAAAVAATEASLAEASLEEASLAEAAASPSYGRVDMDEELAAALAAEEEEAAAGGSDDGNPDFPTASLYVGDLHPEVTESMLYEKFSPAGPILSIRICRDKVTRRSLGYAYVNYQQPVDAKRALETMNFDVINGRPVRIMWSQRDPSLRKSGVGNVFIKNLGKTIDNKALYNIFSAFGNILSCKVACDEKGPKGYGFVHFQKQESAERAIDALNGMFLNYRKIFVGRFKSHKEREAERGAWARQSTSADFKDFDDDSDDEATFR
Strand	7-mer Z-score
UCUUAUA	-0.289
ACUUAGG	-0.0409
CGGGAUA	0.233
AGUAAAA	3.18
CGUCGAC	-0.293
ACGGGUC	0.0189
GGAUAUG	0.0823
UUUGUCC	-0.485
AGCCAAU	-0.0573
CGAAGGG	0.111
UAUUAUC	-0.295
CAACGGA	0.0913
GGAGAAU	0.104
AGAUCAU	-0.188
GUGCUCC	-0.322
AUGUCAU	-0.282
AAGGUUA	0.0334
GACGGUG	0.0207
GCGUCCC	-0.244
GAAACGA	0.392
CGUUUCG	-0.566
AGCACUC	-0.209

Block 4 — method: RNA Bind-n-Seq; form: RNA; matrix: in vitro; tested at: 365 nM; reference: no-protein control; direction: higher = stronger binding
Target: RNA binding protein fox-1 homolog 2, RRM domain, GST-SBP tag (RBFOX2, Homo sapiens, UniProt O43251-10, residues 100-194)
Notes: natural RNA segment, single round, ends assumed
All sequences stand within: GGGAGUUCUACAGUCCGACGAUC … UGGAAUUCUCGGGUGCCAA
Residues (chain): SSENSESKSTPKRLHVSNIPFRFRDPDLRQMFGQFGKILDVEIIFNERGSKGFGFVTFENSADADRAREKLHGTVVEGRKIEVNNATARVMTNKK
Strand	RBNS enrichment (R)
AAAGGCCACCUGUCCCACUCCUACGAUACGCUACUAUAAAGAGAAGACGAAAUAGUGACAUAAUAUAUUCUAUUUUUAUACUCUUCCUAUUUUUGUAGUGACCUGUUUAU	0.271
CUUUUCUUUCCAGUGUGAUUACACGUGCAUUUCCAGGUGCUGAUUUGCAGCUCUCUGUUACCUUAAUCUACUUCAAAUGUAUUUUUUUUUGUAAUCAUUCUCUAAUCCCA	0.7
GGUUCUGCAACCACCAGGGAGGCAGCCCGAGGUGAUGCUGCUCACCGCGCCCUACAGUACCUCAGGAUCAUGGCGGGUAGCAAGUAGCAUCCCACUGCAGUGAUGGAUAU	0.507
GCUGGGGUAGUCACCAGCUUACUGUGGGUACAGGGCUCUUAGCUUGUAUGUGUUCUCCCUUCCUUGAAUCUCUUGUAUGGCCCUAGAACUUUGGUCAGGUGUGUUUAUGG	1.57
AAGGGCAGUCAAGUCCAGUCACCCAUAUUACUCAUCAAUGUUAGACGAAGCCUUGAGCUGAAGGAGGUGCUGUCGGCUAGGCCUCUACUCUGGGUUUCAGAGAGUAGUAU	1.09
UCCAAAAGGCUAGGCCAAUAAGAGGAGGCCAGGCUCUGUGGUCCCUUGGUGACAUCAUUCCAAACCUGGGGUAGCUGCCGCCCCCUGUGUCAGCCACAUACCCCCUCUCG	0.147
CAUGAAAAAAAUCAAAUUUUUGAUUUAUUAUAAAUGAAUGUUGUCCCUGAACUUAGCUAAAUGGUGCACUUAGUUUCUCCUUGCUUUCAUAUUAUCGAAUUCGAAUUUCC	0.396
UCCUCCGCGGGAGGUGGCCCUCAGCUGGGACAGUGGGGACCCAGGCUUCUCCUCAGAGCCAGGCCCUGACUUGCCUUCUCCCACCCCGUGGACCGCUUCCCCUGCCUUCU	0.34
CGUAGUUUUCGCAUCCUUGAAUUAAACUGCCUUAACUCCUUUUGUGGUAUAAGCAAAACUACAUGGACUCUGUCCUGGUAUCCUUUUCCUGUGUGGUUGCCCCGUGUCCU	0.581
CAGGAGCAGACAGAGCAAGAAUUGGCUCCAGGGCUCAAGCCUGCCCUCUGGGCAGCCUGGCGUGGGGACACUUGUUCUGUUCUGUCAUAUCCAAAACAAACUCCAUCCCC	0.207
GUGGCCACUGAAGUCUCAGGUGCAGAUGGGUUCUCCCGGGAACCCAGGGUUGGAUCCAUAAGGCUUUAAUCUGGCCCUGAAAGCAGUGUUGCCGCUUCAGACAGUACUGC	0.252
CUGGCAGCGCCUCCCGCCGCCUCGGGCCGCCUCCUCCAGACUCGAGAGGGCUGAGCCCCUCCUCUCCUCGUCCGGCCUGCAGCCCAGAACGGGCCUCCCCGGGGGUCCCC	0.305

Block 5 — method: protein binding microarray; form: double-stranded DNA, one strand shown; matrix: in vitro; tested at: not given; reference: not given; direction: higher = stronger binding
Target: Histone acetyltransferase KAT6A, winged helix 1, GST fusion (KAT6A, Homo sapiens, UniProt Q92794, residues 1-85)
Notes: 8-mer, flanks averaged, mean of 2 arrays, mostly near background
Construct (chain): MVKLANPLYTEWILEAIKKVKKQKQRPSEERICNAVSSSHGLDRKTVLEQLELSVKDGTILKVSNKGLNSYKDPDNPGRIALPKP
Strand	E-score
GCGATCAC	0.257
GAGCAGGC	0.0336
ACCGAGGG	-0.0584
CGCCGCAG	0.328
AGTTACAG	-0.216
ATACTGAG	0.00549
CCCAGAAG	-0.186
GTTACTTA	-0.0274
GCATCCCC	0.0908
AGACAGAT	-0.326
AATAAACG	0.0985
AGTCACGC	0.0463
AAATCTTG	-0.147
AACGCTTA	0.0394
CGTCGGGA	0.397
AAGGCGAT	-0.0126
GGCCTTTA	0.156
GCGAGCAC	0.0864
TCAATGAA	-0.209
ATATATGC	-0.112
CCCTTCCA	-0.117
GACGGTGA	0.148
AAGTAGAC	-0.208
ACCGCGGC	0.443
CAGGTGTA	-0.105

For quick reference, copied from above (block 2):
Strand	fitted relative affinity
GACGGTTTCGGTTTCGGGTCGTGCTAG	16.9 z-score
TCATTTTAGCTTCTCAAACTGTGCTAG	0.029 z-score
TCAGGTTCCCTTTTCCTTTAGTGCTAG	0.863 z-score
CACGGTTCCCTTTTCCTGACGTGCTAG	0.706 z-score
GACGATATCCTTCTCCTGACGTGCTAG	0.451 z-score
GACGGACTGGACACTAGGGACGTGCTA	-0.384 z-score
GAAGGTTTCCTTATCCTGACGTGCTAG	1.16 z-score
TTAGGTATCGGGTTTCGGTCAGTGCTA	7.53 z-score
TTAGGACTTGGGACTGGGTTAGTGCTA	-0.532 z-score
TACTTTCTGAATGCTCCCCCTGTGCTA	2.31 z-score
TTAGGGTCCCTTTTCCTTTAGTGCTAG	0.435 z-score
GACGGTTTCCATCTCCTGACGTGCTAG	1.77 z-score
TTAGGTATCCTTATCCATTAGTGCTAG	0.444 z-score
GACAGTTCCGGTTTCGGGACGTGCTAG	6.21 z-score
TCACCCCTCAGATCTGCCACTGTGCTA	0.0508 z-score
